# Published values from different studies.
# Values joined by “and” are separate records of one study, mostly repeats; a detail may differ. ± marks the error that the study gave.
Compound,test,test system,setting,how to read,measurement,result
Cc1cn([C@H]2C[C@H](O)[C@@H](COP(=O)(O)OP(=O)(O)OP(=O)(O)O)O2)c(=O)[nH]c1=O,"binding, MIDAS equilibrium dialysis LC-MS",A2AR-BRIL thermostabilized,concentration not given,baseline: no-protein control,log2 fold change,-0.986
COc1cccc(-c2n[nH]c(SCc3ccccn3)n2)c1OC,,"Sprague-Dawley rats, both sexes","oral dietary, 30 mg/kg/day, day 90, 6 h",,plasma concentration,3160 ng/mL
Cc1cc([C@H]2C[C@H]3[C@@H](CF)SC(N)=N[C@@]3(c3ccc(F)cc3F)CO2)on1,,"male 129/SVE wild-type mouse, plasma","subcutaneous, 100 mg/kg, 3 h",,plasma concentration,2170 nM
C[C@@H]1CCO[C@H]2Cn3cc(C(=O)NCc4ccc(F)cc4F)c(=O)c(O)c3C(=O)N12,"population PK, post-hoc","children, 6 to <10 kg, plasma","oral, 20 mg dispersible tablet, 24 h, steady state, geometric mean",,plasma concentration,1420 ng/mL
Cc1c(C(=O)O)ccc2c3n(nc12)[C@@H]1[C@H](C3)N(CC2CC2)[C@@]2(C(=O)Nc3cc(Cl)ccc32)[C@H]1c1cccc(Cl)c1F,,"female BALB/c nude mice, plasma","oral, 1 mg/kg twice daily, 14 h, SJSA-1 tumour-bearing",,plasma concentration,1240 nM and 632 nM and 822 nM and 1230 nM
CNCCOC12CC3(C)CC(C)(CC(Cn4ncc(-c5ccc(N6CCc7cccc(C(=O)Nc8nc9ccccc9s8)c7C6)nc5C(=O)O)c4C)(C3)C1)C2,,anaesthetised male beagle dogs,"intravenous bolus, 0.03 mg/kg, 75 min",,plasma concentration,0 ng/mL
COc1ccc2c(c1)CN(C(=O)CCN1CCC(Cc3ccccc3)CC1)CC[S@@+]2[O-],,"anaesthetised beagle dog, male, plasma","intravenous, 2 mg/kg over 30 min, end of infusion",,plasma concentration,712 ± 276 ng/mL
Cc1c(-c2ccc(N3CCc4cccc(C(=O)Nc5nc6ccccc6s5)c4C3)nc2C(=O)O)cnn1CC12CC3(C)CC(C)(C1)CC(OCCNCC[C@H](O)CO)(C3)C2,,anaesthetized male beagle dog,"iv infusion, 0.1 mg/kg/min, 90 min",,plasma concentration,< 4 ng/mL
CCCCCN1C[C@H](O)[C@@H](O)[C@H](O)[C@@H]1CO,LC-MS/MS,"mouse Hexb-/- female, plasma","300 mg/kg/day, geometric mean",,plasma concentration,3170 ng/mL
N=C(N)NCCC[C@@H](NC(=O)CCOCCOCCNC(=O)[C@H](CCCCNC(=O)CC[C@H](NC(=O)c1ccc(NCc2cnc3nc(N)[nH]c(=O)c3n2)cc1)C(=O)O)NC(=O)CO/N=C/[C@H](F)[C@@H](O)[C@H](O)[C@H](O)CO)C(=O)NCC(=O)N[C@H](CC(=O)O)C(N)=O [fluorine-18 labelled],radio-HPLC,human plasma,"2.5 h, 37 °C",,free fluorine-18 released,≤ 20%
CCOCc1nc(O)c(-c2nnc(Cc3ccc(Cl)cn3)o2)c(O)c1-c1c(OC)cccc1OC,,"anaesthetised rat, plasma","intravenous infusion, 100 µg/kg/min, 15 min",,plasma concentration,15000 ± 220 nM
C[C@@H](O)[C@H]1C(=O)N2C(C(=O)O)=C(S[C@@H]3CN[C@H](C(=O)N(C)C)C3)[C@H](C)[C@H]12,,"BALB/c mouse, male, plasma","intraperitoneal, dose not given, 10 h, together with: combination treatment",,plasma concentration,2560 ng/mL
CC(CCC(=O)O)C(=O)O (stereo not shown),"binding, MIDAS equilibrium dialysis LC-MS",A2AR-BRIL thermostabilized,concentration not given,baseline: no-protein control,log2 fold change,-0.775
